Published values collected from several papers.
Compare with care: the assays were run in different laboratories. Numbers after ± are the reported error.
B1: wzb (Escherichia coli, UniProt P0AAB2); chain MFNNILVVCVGNICRSPTAERLLQRYHPELKVESAGLGALVGKGADPTAISVAAEHQLSLEGHCARQISRRLCRNYDLILTMEKRHIERLCEMAPEMRGKVMLFGHWDNECEIPDPYRKSRETFAAVYTLLERSARQWAQALNAEQV
B2: LY96 LOS-bound (Homo sapiens, UniProt Q9Y6Y9); sequence looked up; chain QKQYWVCNSSDASISYTYCDKMQYPISINVNPCIELKRSKGLLHIFYIPRRDLKQLYFNLYITVNTMNLPKRKEVICRGSDDDYSFCRALKGETVNTTISFSFKGIKFSKGKYKCVVEAISGSPEEMLFCLEFVILHQPNSN
B3: CyaY 1-106 (Escherichia coli, UniProt P27838); chain MNDSEFHRLADQLWLTIEERLDDWDGDSDIDCEINGGVLTITFENGSKIIINRQEPLHQVWLATKQGGYHFDLKGDEWICDRSGETFWDLLEQAATQQAGETVSFR
B4: FBLN5 42-167 (Homo sapiens, UniProt Q9UBX5); chain DIDECRTIPEACRGDMMCVNQNGGYLCIPRTNPVYRGPYSNPYSTPYSGPYPAAAPPLSAPNYPTISRPLICRFGYQMDESNQCVDVDECATDSHQCNPTQICINTEGGYTCSCTDGYWLLEGQCL
B5: ICAM1 28-485 (Homo sapiens, UniProt P05362); sequence looked up; chain QTSVSPSKVILPRGGSVLVTCSTSCDQPKLLGIETPLPKKELLLPGNNRKVYELSNVQEDSQPMCYSNCPDGQSTAKTFLTVYWTPERVELAPLPSWQPVGKNLTLRCQVEGGAPRANLTVVLLRGEKELKREPAVGEPAEVTTTVLVRRDHHGANFSCRTELDLRPQGLELFENTSAPYQLQTFVLPATPPQLVSPRVLEVDTQGTVVCSLDGLFPVSEAQVHLALGDQRLNPTVTYGNDSFSAKASVSVTAEDEGTQRLTCAVILGNQSQETLQTVTIYSFPAPNVILTKPEVSEGTEVTVKCEAHPRAKVTLNGVPAQPLGPRAQLLLKATPEDNGRSFSCSATLEVAGQLIHKNQTRELRVLYGPRLDERDCPGNWTWPENSQQTPMCQAWGNPLPELKCLKDGTFPLPIGESVTVTRDLEGTYLCRARSTQGEVTRKVTVNVLSPRYEIVIIT
B6: bfd 1-73 C43S (Pseudomonas aeruginosa, UniProt Q9HY80); chain MYVCLCQGVTDNQIRDAIYEGCCSYREVREATGVGTQCGKCASLAKQVVRETLNDLQSAQPVPAFGTTAFVAA
UniProt P76387, sequence (whole entry, unmodified, looked up): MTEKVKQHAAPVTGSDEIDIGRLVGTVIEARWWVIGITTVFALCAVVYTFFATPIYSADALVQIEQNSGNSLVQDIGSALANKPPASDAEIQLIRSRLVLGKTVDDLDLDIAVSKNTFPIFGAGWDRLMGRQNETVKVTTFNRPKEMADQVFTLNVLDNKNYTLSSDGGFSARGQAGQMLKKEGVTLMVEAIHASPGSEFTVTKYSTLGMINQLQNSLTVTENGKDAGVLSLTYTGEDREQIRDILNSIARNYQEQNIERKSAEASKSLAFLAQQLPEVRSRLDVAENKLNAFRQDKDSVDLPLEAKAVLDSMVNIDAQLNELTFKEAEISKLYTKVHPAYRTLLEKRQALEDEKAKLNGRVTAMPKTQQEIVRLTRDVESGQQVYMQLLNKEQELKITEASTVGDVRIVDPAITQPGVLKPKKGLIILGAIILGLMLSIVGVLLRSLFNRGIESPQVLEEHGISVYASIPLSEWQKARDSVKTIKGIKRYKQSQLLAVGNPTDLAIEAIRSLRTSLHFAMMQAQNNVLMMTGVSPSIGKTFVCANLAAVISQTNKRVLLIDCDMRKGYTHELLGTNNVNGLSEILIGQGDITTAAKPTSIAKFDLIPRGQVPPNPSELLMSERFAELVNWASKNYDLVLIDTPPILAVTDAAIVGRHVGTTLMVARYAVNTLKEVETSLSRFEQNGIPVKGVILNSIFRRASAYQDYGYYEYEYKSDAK
UniProt P26151, sequence (whole entry, looked up): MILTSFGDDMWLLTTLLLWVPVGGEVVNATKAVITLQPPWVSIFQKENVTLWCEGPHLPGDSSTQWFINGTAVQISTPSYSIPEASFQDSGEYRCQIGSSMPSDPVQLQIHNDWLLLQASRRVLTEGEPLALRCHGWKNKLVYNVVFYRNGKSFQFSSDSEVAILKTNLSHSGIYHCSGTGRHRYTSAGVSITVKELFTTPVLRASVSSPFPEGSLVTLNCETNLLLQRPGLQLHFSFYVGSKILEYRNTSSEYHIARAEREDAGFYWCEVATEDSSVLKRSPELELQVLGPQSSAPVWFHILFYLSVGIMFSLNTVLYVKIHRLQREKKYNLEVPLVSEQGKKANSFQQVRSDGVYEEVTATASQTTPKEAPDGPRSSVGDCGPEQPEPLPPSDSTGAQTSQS
UniProt Q9KWN0, sequence (whole entry, looked up): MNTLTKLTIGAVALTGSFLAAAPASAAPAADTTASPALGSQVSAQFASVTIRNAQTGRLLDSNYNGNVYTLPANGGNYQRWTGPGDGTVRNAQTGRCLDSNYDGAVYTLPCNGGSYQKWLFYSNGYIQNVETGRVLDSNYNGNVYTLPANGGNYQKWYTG
UniProt P35555, sequence (whole entry, looked up): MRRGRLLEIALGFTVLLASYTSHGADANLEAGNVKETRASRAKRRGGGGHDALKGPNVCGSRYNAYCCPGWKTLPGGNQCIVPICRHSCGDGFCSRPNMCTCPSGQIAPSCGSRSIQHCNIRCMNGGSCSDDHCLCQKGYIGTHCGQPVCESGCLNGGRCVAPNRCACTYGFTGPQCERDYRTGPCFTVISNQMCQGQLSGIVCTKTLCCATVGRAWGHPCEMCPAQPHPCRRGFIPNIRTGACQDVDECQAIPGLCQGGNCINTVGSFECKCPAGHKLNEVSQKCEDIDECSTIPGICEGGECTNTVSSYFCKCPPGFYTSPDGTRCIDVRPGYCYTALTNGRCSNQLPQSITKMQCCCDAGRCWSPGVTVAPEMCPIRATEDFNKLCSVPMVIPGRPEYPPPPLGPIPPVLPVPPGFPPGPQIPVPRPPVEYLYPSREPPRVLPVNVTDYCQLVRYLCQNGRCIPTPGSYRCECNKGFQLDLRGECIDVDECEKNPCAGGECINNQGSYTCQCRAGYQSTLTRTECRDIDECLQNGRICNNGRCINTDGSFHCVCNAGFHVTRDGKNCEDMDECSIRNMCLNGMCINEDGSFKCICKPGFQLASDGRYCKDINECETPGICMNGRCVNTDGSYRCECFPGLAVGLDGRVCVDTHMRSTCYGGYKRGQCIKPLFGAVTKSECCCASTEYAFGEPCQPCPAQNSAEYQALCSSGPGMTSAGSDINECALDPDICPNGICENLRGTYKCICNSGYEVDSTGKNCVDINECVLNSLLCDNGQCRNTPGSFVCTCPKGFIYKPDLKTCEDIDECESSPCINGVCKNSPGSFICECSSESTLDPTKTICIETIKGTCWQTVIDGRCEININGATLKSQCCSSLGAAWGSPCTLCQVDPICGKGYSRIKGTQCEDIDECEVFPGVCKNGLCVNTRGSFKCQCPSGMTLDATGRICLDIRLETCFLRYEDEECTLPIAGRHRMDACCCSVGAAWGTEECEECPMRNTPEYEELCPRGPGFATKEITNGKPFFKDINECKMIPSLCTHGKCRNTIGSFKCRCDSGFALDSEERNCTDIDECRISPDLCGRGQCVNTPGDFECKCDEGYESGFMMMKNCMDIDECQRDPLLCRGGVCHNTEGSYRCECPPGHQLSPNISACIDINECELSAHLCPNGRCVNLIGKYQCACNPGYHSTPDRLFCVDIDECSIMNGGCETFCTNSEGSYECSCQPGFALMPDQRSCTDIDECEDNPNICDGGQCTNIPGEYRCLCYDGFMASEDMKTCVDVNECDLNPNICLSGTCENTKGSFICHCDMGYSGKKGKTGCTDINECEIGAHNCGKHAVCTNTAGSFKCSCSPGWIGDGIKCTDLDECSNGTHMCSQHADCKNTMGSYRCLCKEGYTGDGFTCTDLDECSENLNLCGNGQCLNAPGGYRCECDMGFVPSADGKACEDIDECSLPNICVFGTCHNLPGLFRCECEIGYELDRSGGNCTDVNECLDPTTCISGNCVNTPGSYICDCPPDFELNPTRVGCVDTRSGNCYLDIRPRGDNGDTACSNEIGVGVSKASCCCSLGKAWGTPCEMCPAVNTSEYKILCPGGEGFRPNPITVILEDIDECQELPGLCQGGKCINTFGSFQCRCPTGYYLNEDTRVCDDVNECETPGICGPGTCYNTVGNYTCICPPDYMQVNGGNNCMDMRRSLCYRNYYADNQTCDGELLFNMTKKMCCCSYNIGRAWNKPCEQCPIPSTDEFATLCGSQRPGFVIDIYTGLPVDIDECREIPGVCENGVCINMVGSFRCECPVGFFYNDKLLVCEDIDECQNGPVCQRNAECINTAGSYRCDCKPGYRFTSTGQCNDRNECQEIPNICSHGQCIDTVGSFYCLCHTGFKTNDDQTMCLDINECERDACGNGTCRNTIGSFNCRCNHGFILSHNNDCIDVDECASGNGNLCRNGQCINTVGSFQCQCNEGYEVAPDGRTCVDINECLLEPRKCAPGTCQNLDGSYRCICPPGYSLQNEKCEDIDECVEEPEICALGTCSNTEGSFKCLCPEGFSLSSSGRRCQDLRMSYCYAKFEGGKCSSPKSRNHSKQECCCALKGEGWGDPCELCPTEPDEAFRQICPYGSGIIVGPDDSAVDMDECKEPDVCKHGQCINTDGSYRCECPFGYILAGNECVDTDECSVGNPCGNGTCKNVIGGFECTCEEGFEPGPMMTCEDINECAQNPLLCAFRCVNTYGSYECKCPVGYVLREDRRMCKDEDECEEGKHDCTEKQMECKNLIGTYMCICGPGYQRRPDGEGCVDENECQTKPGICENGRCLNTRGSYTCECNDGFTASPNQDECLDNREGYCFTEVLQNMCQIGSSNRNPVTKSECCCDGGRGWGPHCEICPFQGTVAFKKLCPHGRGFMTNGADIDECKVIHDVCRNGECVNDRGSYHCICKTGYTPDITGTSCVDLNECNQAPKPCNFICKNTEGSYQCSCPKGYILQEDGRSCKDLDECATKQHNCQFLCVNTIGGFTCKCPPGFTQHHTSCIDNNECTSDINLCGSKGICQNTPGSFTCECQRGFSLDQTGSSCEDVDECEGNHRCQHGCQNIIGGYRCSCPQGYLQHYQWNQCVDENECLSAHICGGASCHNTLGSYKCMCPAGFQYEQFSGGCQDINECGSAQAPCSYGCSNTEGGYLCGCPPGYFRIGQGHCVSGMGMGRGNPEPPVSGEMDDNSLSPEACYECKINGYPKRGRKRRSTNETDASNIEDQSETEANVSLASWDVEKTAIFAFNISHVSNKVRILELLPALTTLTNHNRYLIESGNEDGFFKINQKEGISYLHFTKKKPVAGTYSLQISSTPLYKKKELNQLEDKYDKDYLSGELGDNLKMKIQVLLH
UniProt P08637, sequence (whole entry, looked up): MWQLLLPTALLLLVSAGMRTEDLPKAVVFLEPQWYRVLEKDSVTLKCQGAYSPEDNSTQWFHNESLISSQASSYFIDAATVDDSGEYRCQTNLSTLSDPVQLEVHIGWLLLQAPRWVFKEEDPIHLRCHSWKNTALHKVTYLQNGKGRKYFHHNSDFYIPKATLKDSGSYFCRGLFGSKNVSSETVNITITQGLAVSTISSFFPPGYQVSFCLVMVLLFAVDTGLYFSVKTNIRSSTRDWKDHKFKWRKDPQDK

Molecule = B1 (wzb); partner = wzc 447-704 (Escherichia coli, UniProt P76387); assay = ITC; Kd = 10700 ± 1300 nM
Molecule = B2 (LY96 LOS-bound); partner = TLR4 (Homo sapiens, UniProt O00206); assay = radioligand binding; test system = HEK293T; conditions = 30 min, 37 °C; Kd = 0.528 ± 0.1 nM
Molecule = B3 (CyaY 1-106); partner = IscS 1-404 (Escherichia coli, UniProt P0A6B7); assay = ITC; conditions = pH 8.0, 25 °C, NaCl 150 mM; Kd = 18500 ± 2400 nM
Molecule = Fcgr1 (Mus musculus, UniProt P26151); partner = Ighg3 Fc domain, C-terminal cysteine (Mus musculus); assay = SPR; Kd = 405 ± 34 nM
Molecule = B4 (FBLN5 42-167); partner = FBN1 31-489 (Homo sapiens, UniProt P35555); assay = ELISA; Kd = 344 ± 54 nM
Molecule = B5 (ICAM1 28-485); partner = IT4VAR13 1-2691 (Plasmodium falciparum, UniProt A3R6S0); assay = SPR; test system = Fc fusion; conditions = one-site fit; Kd = 2.8 nM
Molecule = B6 (bfd 1-73 C43S); partner = bfrB 1-158 extra Met0 (Pseudomonas aeruginosa, UniProt Q9HY79); assay = ITC; conditions = pH 7.0, 22 °C; Kd = 2600 ± 1000 nM
Molecule = FCGR3A (Homo sapiens, UniProt P08637); partner = protein Fc fusion, IgG1 (Homo sapiens, UniProt Q9KWN0); assay = SPR; conditions = steady state; Kd = 280 nM

For quick reference, copied from above:
Molecule = B5 (ICAM1 28-485); partner = IT4VAR13 1-2691 (Plasmodium falciparum, UniProt A3R6S0); assay = SPR; test system = Fc fusion; conditions = one-site fit; Kd = 2.8 nM
